Measured values of several laboratories.
Compare with care: the assays were run in different laboratories. Values joined by “and” are separate records of one study, mostly repeats; a detail may differ. ± gives the spread as reported.
SRC: Proto-oncogene tyrosine-protein kinase Src (SRC, Homo sapiens, UniProt P12931)
ZNRF3: E3 ubiquitin-protein ligase ZNRF3 (ZNRF3, Homo sapiens, UniProt Q9ULT6)
Chain of UniProt Q9ULT6 (whole entry, looked up): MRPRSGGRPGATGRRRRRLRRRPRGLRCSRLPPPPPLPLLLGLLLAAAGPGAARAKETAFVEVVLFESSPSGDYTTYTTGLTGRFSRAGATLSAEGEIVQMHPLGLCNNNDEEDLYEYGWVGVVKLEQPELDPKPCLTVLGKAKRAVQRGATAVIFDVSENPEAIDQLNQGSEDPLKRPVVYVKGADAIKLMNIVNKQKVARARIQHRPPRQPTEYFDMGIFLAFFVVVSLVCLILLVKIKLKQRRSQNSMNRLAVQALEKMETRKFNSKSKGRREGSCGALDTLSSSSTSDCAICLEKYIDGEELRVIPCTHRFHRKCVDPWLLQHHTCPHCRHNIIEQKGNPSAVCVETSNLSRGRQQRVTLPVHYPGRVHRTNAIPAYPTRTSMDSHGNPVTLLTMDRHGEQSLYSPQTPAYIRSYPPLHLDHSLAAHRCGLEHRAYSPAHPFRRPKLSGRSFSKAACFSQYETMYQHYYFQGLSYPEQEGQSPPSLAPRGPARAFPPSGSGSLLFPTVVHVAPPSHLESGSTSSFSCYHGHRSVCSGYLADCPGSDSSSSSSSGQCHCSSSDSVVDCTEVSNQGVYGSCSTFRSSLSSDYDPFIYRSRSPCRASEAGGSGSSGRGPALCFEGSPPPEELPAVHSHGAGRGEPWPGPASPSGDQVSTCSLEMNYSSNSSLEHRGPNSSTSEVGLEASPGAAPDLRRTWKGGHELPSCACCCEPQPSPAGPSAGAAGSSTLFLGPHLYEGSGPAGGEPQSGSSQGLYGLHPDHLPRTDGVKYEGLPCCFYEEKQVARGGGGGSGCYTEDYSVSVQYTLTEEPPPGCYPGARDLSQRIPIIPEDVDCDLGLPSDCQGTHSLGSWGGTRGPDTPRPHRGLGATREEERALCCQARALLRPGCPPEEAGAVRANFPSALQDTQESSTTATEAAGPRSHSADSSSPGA
Gastric inhibitory polypeptide receptor: Gastric inhibitory polypeptide receptor (Mus musculus, UniProt Q0P543)
Chain of UniProt Q0P543 (whole entry, looked up): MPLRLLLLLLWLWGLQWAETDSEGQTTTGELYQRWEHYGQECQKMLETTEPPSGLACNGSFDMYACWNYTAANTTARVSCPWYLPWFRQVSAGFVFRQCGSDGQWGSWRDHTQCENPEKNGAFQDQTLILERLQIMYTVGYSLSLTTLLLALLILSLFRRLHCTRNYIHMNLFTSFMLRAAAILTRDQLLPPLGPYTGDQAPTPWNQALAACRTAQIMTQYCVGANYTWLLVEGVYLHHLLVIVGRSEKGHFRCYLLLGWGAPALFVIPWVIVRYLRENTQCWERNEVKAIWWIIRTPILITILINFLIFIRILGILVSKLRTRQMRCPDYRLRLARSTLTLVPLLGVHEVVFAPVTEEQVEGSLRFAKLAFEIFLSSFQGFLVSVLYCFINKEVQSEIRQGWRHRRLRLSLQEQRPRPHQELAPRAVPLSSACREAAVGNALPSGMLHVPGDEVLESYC
inhA: Enoyl-[acyl-carrier-protein] reductase [NADH] (inhA, Mycobacterium tuberculosis, UniProt P9WGR1)
Chain of UniProt P9WGR1 (whole entry, looked up): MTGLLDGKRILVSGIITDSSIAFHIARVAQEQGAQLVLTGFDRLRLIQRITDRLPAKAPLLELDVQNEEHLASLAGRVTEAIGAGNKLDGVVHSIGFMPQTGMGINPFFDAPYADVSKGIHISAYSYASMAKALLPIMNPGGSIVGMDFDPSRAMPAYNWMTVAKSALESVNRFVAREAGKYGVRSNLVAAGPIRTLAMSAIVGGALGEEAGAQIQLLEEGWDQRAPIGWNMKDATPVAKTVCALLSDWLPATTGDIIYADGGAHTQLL
cqsS: CAI-1 autoinducer sensor kinase/phosphatase CqsS (cqsS, Vibrio cholerae serotype O1, UniProt Q9KM66)
Chain of UniProt P07148 (whole entry, looked up): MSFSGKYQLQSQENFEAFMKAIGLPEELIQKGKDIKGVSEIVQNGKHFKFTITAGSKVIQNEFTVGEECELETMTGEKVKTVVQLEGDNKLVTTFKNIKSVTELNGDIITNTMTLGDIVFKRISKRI
Chain of UniProt Q9KM66 (whole entry, looked up): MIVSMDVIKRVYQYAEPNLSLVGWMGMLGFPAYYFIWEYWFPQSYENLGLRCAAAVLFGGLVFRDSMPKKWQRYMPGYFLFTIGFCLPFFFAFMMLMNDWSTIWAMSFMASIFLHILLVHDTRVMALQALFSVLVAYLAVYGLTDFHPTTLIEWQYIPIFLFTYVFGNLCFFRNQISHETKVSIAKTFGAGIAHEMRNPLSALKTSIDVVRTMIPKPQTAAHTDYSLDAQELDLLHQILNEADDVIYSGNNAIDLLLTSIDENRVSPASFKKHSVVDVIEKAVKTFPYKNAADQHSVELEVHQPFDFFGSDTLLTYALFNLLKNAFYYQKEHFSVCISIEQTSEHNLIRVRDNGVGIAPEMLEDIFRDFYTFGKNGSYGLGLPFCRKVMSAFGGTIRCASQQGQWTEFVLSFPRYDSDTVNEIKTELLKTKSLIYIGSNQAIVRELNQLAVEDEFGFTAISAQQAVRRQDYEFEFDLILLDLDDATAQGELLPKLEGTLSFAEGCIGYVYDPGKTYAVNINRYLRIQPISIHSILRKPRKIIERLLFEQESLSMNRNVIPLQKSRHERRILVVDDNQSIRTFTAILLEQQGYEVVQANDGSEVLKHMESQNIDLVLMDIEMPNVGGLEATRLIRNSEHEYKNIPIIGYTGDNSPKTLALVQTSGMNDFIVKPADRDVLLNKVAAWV
Chain of UniProt P46098 (whole entry, looked up): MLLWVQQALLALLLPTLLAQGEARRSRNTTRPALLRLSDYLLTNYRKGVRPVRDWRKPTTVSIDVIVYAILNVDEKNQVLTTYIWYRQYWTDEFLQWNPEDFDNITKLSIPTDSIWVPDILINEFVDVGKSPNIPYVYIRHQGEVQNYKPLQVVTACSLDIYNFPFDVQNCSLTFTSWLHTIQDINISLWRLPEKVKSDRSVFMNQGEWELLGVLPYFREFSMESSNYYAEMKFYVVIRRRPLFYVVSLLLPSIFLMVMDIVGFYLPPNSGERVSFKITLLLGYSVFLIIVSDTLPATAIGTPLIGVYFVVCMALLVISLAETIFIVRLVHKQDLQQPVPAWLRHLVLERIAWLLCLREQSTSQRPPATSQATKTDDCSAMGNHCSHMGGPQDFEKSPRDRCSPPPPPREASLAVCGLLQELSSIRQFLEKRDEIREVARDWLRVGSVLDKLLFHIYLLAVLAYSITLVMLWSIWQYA
Chain of UniProt P21554 (whole entry, unmodified, looked up): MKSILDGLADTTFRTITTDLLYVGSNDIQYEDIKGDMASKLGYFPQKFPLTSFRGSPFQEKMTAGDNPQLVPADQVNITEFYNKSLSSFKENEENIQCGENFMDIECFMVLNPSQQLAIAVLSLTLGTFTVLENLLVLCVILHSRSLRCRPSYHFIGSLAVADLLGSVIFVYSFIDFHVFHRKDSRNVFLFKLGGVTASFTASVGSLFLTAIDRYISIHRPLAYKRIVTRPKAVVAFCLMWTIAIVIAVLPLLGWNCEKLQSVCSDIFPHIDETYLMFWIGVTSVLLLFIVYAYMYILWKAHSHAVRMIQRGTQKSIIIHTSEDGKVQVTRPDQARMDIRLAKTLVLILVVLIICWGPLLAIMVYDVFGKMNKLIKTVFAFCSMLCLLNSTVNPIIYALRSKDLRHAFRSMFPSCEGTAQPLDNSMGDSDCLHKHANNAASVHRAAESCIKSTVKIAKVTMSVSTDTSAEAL
Chain of UniProt P07445 (whole entry, unmodified, looked up): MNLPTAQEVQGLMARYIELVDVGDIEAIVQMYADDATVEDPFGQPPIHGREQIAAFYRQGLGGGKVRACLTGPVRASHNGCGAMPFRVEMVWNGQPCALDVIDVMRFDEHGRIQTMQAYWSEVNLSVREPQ
Chain of UniProt P34972 (whole entry, looked up): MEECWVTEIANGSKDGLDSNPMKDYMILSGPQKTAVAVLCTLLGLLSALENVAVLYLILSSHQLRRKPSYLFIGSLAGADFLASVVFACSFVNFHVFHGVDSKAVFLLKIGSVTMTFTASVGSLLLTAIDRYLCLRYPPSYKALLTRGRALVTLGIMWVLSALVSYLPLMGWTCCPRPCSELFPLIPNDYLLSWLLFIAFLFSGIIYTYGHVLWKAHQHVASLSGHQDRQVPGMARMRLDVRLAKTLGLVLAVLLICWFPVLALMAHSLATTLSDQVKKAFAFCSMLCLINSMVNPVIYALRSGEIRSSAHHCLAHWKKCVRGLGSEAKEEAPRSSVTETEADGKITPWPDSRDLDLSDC
Chain of UniProt P06111 (whole entry, looked up): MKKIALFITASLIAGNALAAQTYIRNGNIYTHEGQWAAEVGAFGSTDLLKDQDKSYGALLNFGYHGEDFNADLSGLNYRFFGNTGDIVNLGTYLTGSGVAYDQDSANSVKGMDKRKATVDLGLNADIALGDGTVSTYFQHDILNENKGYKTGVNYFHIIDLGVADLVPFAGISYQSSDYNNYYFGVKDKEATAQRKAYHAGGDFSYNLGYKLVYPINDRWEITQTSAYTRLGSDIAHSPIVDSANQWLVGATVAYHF
Chain of UniProt P40337 (whole entry, looked up): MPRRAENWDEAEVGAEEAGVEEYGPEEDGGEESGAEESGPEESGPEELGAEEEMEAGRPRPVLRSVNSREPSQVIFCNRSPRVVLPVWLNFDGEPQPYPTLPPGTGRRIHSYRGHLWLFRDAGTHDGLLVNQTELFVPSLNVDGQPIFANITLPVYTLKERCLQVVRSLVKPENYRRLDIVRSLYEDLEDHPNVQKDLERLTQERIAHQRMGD

| Structure (SMILES) | target | assay | system | setting | quantity | result |
| --- | --- | --- | --- | --- | --- | --- |
| Cc1cc(O)cc(-c2nc(Nc3cc(C(F)(F)F)cc(C(F)(F)F)c3)ncc2-c2ccnc(-c3cccnc3)c2)c1 | SRC | biochemical |  |  | EC50 | > 100000 nM |
| CC1=CC(C)=[N+]2C1=Cc1ccc(CCC(=O)NCCOCCOCCOCCOCC(=O)N[C@H](C(=O)N3C[C@H](O)C[C@H]3C(=O)NCc3ccc(-c4scnc4C)cc3)C(C)(C)C)n1[B-]2(F)F | von Hippel-Lindau disease tumor suppressor, with elongin B/C (VHL, Homo sapiens, UniProt P40337) | binding, TR-FRET |  | 240 min, added: BODIPY FL VH032 | Kd | 2.98 nM |
| CC1(C)OC2OC(C(CCO)NCCCNC(CCO)C3OC4OC(C)(C)OC4C3OCc3ccccc3)C(OCc3ccccc3)C2O1 (stereo not shown) | DNA ligase A (Mycobacterium tuberculosis, UniProt P9WNV1) | enzyme activity, inhibitor |  |  | Ki | 72800 nM |
| NCCc1ccc(Oc2ccc(O)cc2)c(I)c1 | Trace amine-associated receptor 1 (TAAR1, Homo sapiens, UniProt Q96RJ0) | cAMP, agonist, luciferase |  |  | EC50 | 741 nM |
| CC[C@H](C)[C@@H]1NC(=O)[C@@H]2CCCN2C(=O)[C@H](CCCNC(=N)N)NC(=O)[C@H](CCC(=O)O)NC(=O)[C@@H]2CSSC[C@@H]3NC(=O)[C@H](CCCCN)NC(=O)[C@H](CCCCN)NC(=O)[C@H](CC(N)=O)NC(=O)[C@H](CC(C)C)NC(=O)[C@H](CCCNC(=N)N)NC(=O)[C@H](CC(N)=O)NC(=O)[C@@H](NC(=O)CN)CSSC[C@H](NC(=O)[C@H](CSSC[C@@H](C(=O)N[C@@H](CCCNC(=N)N)C(=O)N4CCC[C@H]4C(=O)N[C@@H](CC(=O)O)C(=O)N[C@H](C(=O)NCC(=O)N4CCC[C@H]4C(=O)O)C(C)C)NC(=O)[C@H](Cc4ccc(O)cc4)NC(=O)[C@H](CCSC)NC(=O)[C@H](Cc4ccc(-n5cc(CN)nn5)cc4)NC(=O)[C@H](CCCCN)NC(=O)[C@H](Cc4c[nH]c5ccccc45)NC(=O)CNC1=O)NC(=O)[C@H](CC(=O)O)NC(=O)[C@H](C)NC(=O)[C@H](CC(=O)O)NC(=O)[C@H](CO)NC(=O)[C@H](CC(N)=O)NC3=O)C(=O)N[C@@H](C)C(=O)N[C@@H](CC(N)=O)C(=O)N[C@@H](CCCCN)C(=O)N[C@@H](CCC(=O)O)C(=O)N[C@@H](CCCCN)C(=O)N2 | ZNRF3 | binding |  | pH 7.4 | Kd | 55 ± 6.5 nM |
| CCCCCn1cc(C(=O)c2ccc3ccccc3c2)c2ccccc21 | Cannabinoid receptor 1 (CNR1, Homo sapiens, UniProt P21554, L193I) | G protein activation, agonist, BRET |  |  | EC50 | 112 nM |
| CC12CCC3C(CC=C4CC(O)CCC43C)C1CCC2=O (stereo not shown) | Steroid Delta-isomerase (Pseudomonas putida, UniProt P07445, D40N/Y119F/Y32F/Y57F) |  |  |  | Kd | 3200 ± 300 nM |
| CC[C@H](C)[C@H](NC(=O)[C@H](CO)NC(=O)[C@H](Cc1ccc(O)cc1)NC(=O)[C@H](CC(=O)O)NC(=O)[C@H](CO)NC(=O)[C@@H](NC(=O)[C@H](Cc1ccccc1)NC(=O)[C@@H](NC(=O)CNC(=O)[C@@H]1CCCN1C(=O)[C@H](C)NC(=O)[C@@H](N)Cc1ccc(O)cc1)[C@@H](C)O)[C@@H](C)CC)C(=O)N[C@@H](C)C(=O)N[C@@H](CCSC)C(=O)N[C@@H](CC(=O)O)C(=O)N[C@@H](CCCCN)C(=O)N[C@H](C(=O)N[C@@H](CCCNC(=N)N)C(=O)N[C@@H](CCC(N)=O)C(=O)N[C@@H](CCC(N)=O)C(=O)N[C@@H](CC(=O)O)C(=O)N[C@@H](Cc1ccccc1)C(=O)N[C@H](C(=O)N[C@@H](CC(N)=O)C(=O)N[C@@H](Cc1c[nH]c2ccccc12)C(=O)N[C@@H](CC(C)C)C(=O)N[C@@H](CC(C)C)C(=O)N[C@@H](C)C(=O)N[C@@H](CCC(N)=O)C(=O)N[C@@H](CCCCN)C(=O)NCC(=O)N[C@@H](CCCCN)C(=O)N[C@@H](CCCCN)C(=O)N[C@@H](CC(N)=O)C(=O)N[C@@H](CC(=O)O)C(=O)N[C@@H](Cc1c[nH]c2ccccc12)C(=O)N[C@@H](CCCCN)C(=O)N[C@@H](Cc1c[nH]cn1)C(=O)N[C@@H](CC(N)=O)C(=O)N[C@@H](CC(C)C)C(=O)N[C@H](C(=O)N[C@@H](CCC(N)=O)C(=O)O)[C@@H](C)O)C(C)C)[C@@H](C)CC | Gastric inhibitory polypeptide receptor | agonist |  |  | EC50 | 38 nM |
| C[N+](C)(C)CCc1c[nH]c2cccc(O)c12 | 5-hydroxytryptamine receptor 3A (HTR3A, Homo sapiens, UniProt P46098) | ligand displacement, radioligand |  | cell membranes | Ki | > 10000 nM |
| CC[C@H](C)[C@H](NC(=O)[C@H](CO)NC(=O)[C@H](Cc1ccc(O)cc1)NC(=O)[C@H](CC(=O)O)NC(=O)[C@H](CO)NC(=O)[C@@H](NC(=O)[C@H](Cc1ccccc1)NC(=O)[C@@H](NC(=O)CNC(=O)[C@@H]1CCCN1C(=O)[C@H](C)NC(=O)[C@@H](N)Cc1ccc(O)cc1)[C@@H](C)O)[C@@H](C)CC)C(=O)N[C@@H](C)C(=O)N[C@@H](CCSC)C(=O)N[C@@H](CC(=O)O)C(=O)N[C@@H](CCCCN)C(=O)N[C@H](C(=O)N[C@@H](CCCNC(=N)N)C(=O)N[C@@H](CCC(N)=O)C(=O)N[C@@H](CCC(N)=O)C(=O)N[C@@H](CC(=O)O)C(=O)N[C@@H](Cc1ccccc1)C(=O)N[C@H](C(=O)N[C@@H](CC(N)=O)C(=O)N[C@@H](Cc1c[nH]c2ccccc12)C(=O)N[C@@H](CC(C)C)C(=O)N[C@@H](CC(C)C)C(=O)N[C@@H](C)C(=O)N[C@@H](CCC(N)=O)C(=O)N[C@@H](CCCNC(=N)N)C(=O)NCC(=O)N[C@@H](CCCCN)C(=O)N[C@@H](CCCCN)C(=O)N[C@@H](CO)C(=O)N[C@@H](CC(=O)O)C(=O)N[C@@H](Cc1c[nH]c2ccccc12)C(=O)N[C@@H](CCCCN)C(=O)N[C@@H](Cc1c[nH]cn1)C(=O)N[C@@H](CC(N)=O)C(=O)N[C@H](C(=O)N[C@H](C(=O)N[C@@H](CCC(N)=O)C(=O)O)[C@@H](C)O)[C@@H](C)CC)C(C)C)[C@@H](C)CC | Gastric inhibitory polypeptide receptor | agonist |  |  | EC50 | 29 nM |
| CC(C)C[C@H](NC(=O)[C@@H]1CCCN1C(=O)[C@H](Cc1c[nH]c2ccccc12)NC(=O)[C@H](Cc1ccc(O)cc1)NC(=O)[C@@H](N)CO)C(=O)N[C@@H](CC(N)=O)C(=O)N[C@@H](CC(=O)O)C(=O)N[C@@H](Cc1ccc(O)cc1)C(=O)NCC(=O)N[C@@H](Cc1ccccc1)C(=O)N[C@@H](Cc1ccc(O)cc1)C(=O)N[C@H](C(N)=O)[C@@H](C)O | Angiotensin-converting enzyme 2 (ACE2, Homo sapiens, UniProt Q9BYF1) |  |  |  | Kd | 430000 nM |
| COc1cc(N2CCN(C)CC2)ccc1Nc1ncc2c(n1)N(C1CCC1)C(=O)N(c1c(C)cccc1C)C2 | Serine/threonine-protein kinase SIK1 (SIK1, Homo sapiens, UniProt P57059) | inhibitor |  |  | IC50 | 1.9 nM |
| Nc1ncnc2c1c(-c1ccc3c(c1)CCN3C(=O)Cc1cccc(OC(F)(F)F)c1)cn2CCCNC(=O)CCc1ccc2n1[B-](F)(F)[N+]1=C(c3ccc[nH]3)C=CC1=C2 | Receptor-interacting serine/threonine-protein kinase 1 (RIPK1, Homo sapiens, UniProt Q13546) | binding, TR-FRET |  |  | Kd | 443 nM |
| CCCCCCc1ccc(Oc2ccccc2Br)c(O)c1 | inhA | inhibitor, progress curve analysis |  | 20 °C, initial EI complex | Ki | 120 ± 1 nM |
| CCOC(=O)C1C(OC(c2ccc(Cl)cc2)c2ccc(Cl)cc2)CC2CCC1N2C (single isomer, unassigned) | Sigma-2 receptor/TMEM97 (Cavia porcellus, UniProt H0V073) | radioligand binding |  | racemate, added: [3H]DTG, (+)-pentazocine mask | Ki | 333 nM |
| COc1ccc(C=CC(=O)c2ccccc2)cc1OC | inhA | binding, fluorescence |  | pH 8 | Kd | 10300 nM |
| CCC[C@H](NC(=O)[C@H](CC(C)C)NC(=O)OCc1ccccc1)C(=O)C(=O)NCc1ccccn1 | Replicase polyprotein 1ab, main protease (Human coronavirus OC43, UniProt P0C6X6) | enzyme activity, inhibitor |  |  | Ki | 430 nM |
| CCCCCc1cc(O)c2c(c1)OC(C)(C)[C@@H]1CCC(CO)=C[C@@H]21 | Fatty acid-binding protein, liver (FABP1, Homo sapiens, UniProt P07148) | binding, DAUDA displacement |  | added: DAUDA 0.5 µM | Kd | 860 nM and 900 nM |
| Cc1cc(O)cc(-c2nc(Nc3cc(C(F)(F)F)cc(C(F)(F)F)c3)ncc2-c2ccnc(-c3ccccc3)c2)c1 | SRC | biochemical |  |  | EC50 | > 100000 nM |
| CC[C@H](C)[C@@H]1NC(=O)[C@@H]2CCCN2C(=O)[C@H](CCCNC(=N)N)NC(=O)[C@H](CCC(=O)O)NC(=O)[C@@H]2CSSC[C@@H]3NC(=O)[C@H](CCCCN)NC(=O)[C@H](CCCCN)NC(=O)[C@H](CC(N)=O)NC(=O)[C@H](CC(C)C)NC(=O)[C@H](CCCNC(=N)N)NC(=O)[C@H](CC(N)=O)NC(=O)[C@@H](NC(=O)CNC(=O)[C@H](CO)NC(=O)CNC(=O)[C@H](CO)NC(=O)CNC(=O)[C@H](CO)NC(=O)CNC(=O)[C@H](CC(C)C)NC(=O)[C@H](CCCCN)NC(=O)[C@H](CO)NC(=O)[C@H](CCCNC(=N)N)NC(=O)CN)CSSC[C@H](NC(=O)[C@H](CSSC[C@@H](C(=O)N[C@@H](CCCNC(=N)N)C(=O)N4CCC[C@H]4C(=O)N[C@@H](CC(=O)O)C(=O)N[C@H](C(=O)NCC(=O)N4CCC[C@H]4C(=O)O)C(C)C)NC(=O)[C@H](Cc4ccc(O)cc4)NC(=O)[C@H](CCSC)NC(=O)[C@H](Cc4ccccc4)NC(=O)[C@H](CCCCN)NC(=O)[C@H](Cc4c[nH]c5ccccc45)NC(=O)CNC1=O)NC(=O)[C@H](CC(=O)O)NC(=O)[C@H](C)NC(=O)[C@H](CC(=O)O)NC(=O)[C@H](CO)NC(=O)[C@H](CC(N)=O)NC3=O)C(=O)N[C@@H](C)C(=O)N[C@@H](CC(N)=O)C(=O)N[C@@H](CCCCN)C(=O)N[C@@H](CCC(=O)O)C(=O)N[C@@H](CCCCN)C(=O)N2 | ZNRF3 | binding |  | pH 7.4 | Kd | 79 ± 2.8 nM |
| CC1=C[C@H]2c3c(O)cc(CCc4ccccc4)cc3OC(C)(C)[C@@H]2CC1 | Cannabinoid receptor 2 (CNR2, Homo sapiens, UniProt P34972) | GTPγS binding, agonist, radiometric |  | cell membranes | EC50 | 478 nM |
| C/C=C(\N)C(=O)CCCCC | cqsS | bioluminescence, agonist | Vibrio cholerae |  | EC50 | 590 nM |
| CC(=O)N(Cc1ccccc1)[C@@H](C)C(=O)N(C)[C@@H](C)C(=O)N(Cc1c[nH]c2cc(Cl)ccc12)[C@@H](C)C(=O)N(C)[C@@H](C)C(=O)N(CCC(C)(C)C)[C@@H](C)C(=O)N1CCNCC1 | E3 ubiquitin-protein ligase Mdm2, N-terminal domain 17-125 (MDM2, Homo sapiens, UniProt Q00987) | binding, fluorescence anisotropy | PBS with Tween | 25 °C, fluorescein-labelled peptoid, 10 nM | Kd | 8.6 nM |
| C/C=C(\N)C(=O)CCCCCCCCCCCC | cqsS | bioluminescence, agonist | Vibrio cholerae |  | EC50 | > 5000 nM |
| O=C(CCCN1C(=O)[C@H](c2ccccc2)Oc2cccnc21)NCCCN1CCc2ccccc2C1 | Outer membrane protein OmpV (ompV, Vibrio cholerae serotype O1, UniProt P06111) |  |  |  | Kd | 325 nM |

A few entries again:
| Structure (SMILES) | target | assay | system | setting | quantity | result |
| --- | --- | --- | --- | --- | --- | --- |
| CCC[C@H](NC(=O)[C@H](CC(C)C)NC(=O)OCc1ccccc1)C(=O)C(=O)NCc1ccccn1 | Replicase polyprotein 1ab, main protease (Human coronavirus OC43, UniProt P0C6X6) | enzyme activity, inhibitor |  |  | Ki | 430 nM |
| CCCCCc1cc(O)c2c(c1)OC(C)(C)[C@@H]1CCC(CO)=C[C@@H]21 | Fatty acid-binding protein, liver (FABP1, Homo sapiens, UniProt P07148) | binding, DAUDA displacement |  | added: DAUDA 0.5 µM | Kd | 860 nM and 900 nM |
